# Experimental data collected from several papers.
# Parts stem from different laboratories: compare values within a part only. Substitutions count along the parent as printed.

# Sample 1 — target: CCNE2, cyclin fold, Cln2 fusion (human); method: yeast growth competition, sequencing; matrix: yeast; notes: strong parent motif; baseline: not given; direction: higher = stronger binding
# Starting sequence: E2F1 docking peptide (human); PPVKRRLDFETDH; partner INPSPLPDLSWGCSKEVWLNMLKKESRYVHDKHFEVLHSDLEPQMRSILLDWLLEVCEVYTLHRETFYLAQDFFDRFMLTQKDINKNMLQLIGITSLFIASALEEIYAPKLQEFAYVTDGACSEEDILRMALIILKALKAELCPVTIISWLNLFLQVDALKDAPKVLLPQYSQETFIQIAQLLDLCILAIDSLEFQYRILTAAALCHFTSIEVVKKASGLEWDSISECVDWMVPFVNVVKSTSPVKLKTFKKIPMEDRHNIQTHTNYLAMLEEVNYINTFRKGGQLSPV
Substitution,normalised enrichment score
V3H,3.58
K4R,6.14
V3D,-0.208
E10M,5.8
D8H,5.93
D8K,5.71
F9M,1.74
L7T,0.0496
K4H,1.68
L7S,0.11

# Sample 2 — method: universal PBM; molecule type: double-stranded DNA, one strand shown; matrix: in vitro; concentration: not given; direction: higher = stronger binding
# Target: Sal-like protein 4, full length isoform B (SALL4, Homo sapiens, UniProt Q9UJQ4-2, residues 1-616)
# Notes: 8-mer, flanks averaged, mean of replicates
Strand,E-score
CTAGATTA,0.228
GCTCATTA,0.127
CGACATAG,-0.00678
ACTCCCGG,-0.213
AATGGTAA,0.231
AATGAGAC,-0.0884
CTCGATCC,-0.119
CTTCACGA,-0.19
CTCTCAGA,-0.0657
ATCATTTG,0.213
AGAACAAT,0.303
GTAGTTGA,0.0418
GTCCGCAA,-0.143

# Sample 3 — method: protein binding microarray; molecule type: double-stranded DNA, one strand shown; matrix: in vitro; concentration: not given; baseline: not given; direction: higher = stronger binding
# Target: Histone acetyltransferase KAT6A, both winged helices, GST fusion (KAT6A, Homo sapiens, UniProt Q92794, residues 1-181)
# Notes: 8-mer, flanks averaged, mean of 2 arrays, mostly near background
# Construct (chain): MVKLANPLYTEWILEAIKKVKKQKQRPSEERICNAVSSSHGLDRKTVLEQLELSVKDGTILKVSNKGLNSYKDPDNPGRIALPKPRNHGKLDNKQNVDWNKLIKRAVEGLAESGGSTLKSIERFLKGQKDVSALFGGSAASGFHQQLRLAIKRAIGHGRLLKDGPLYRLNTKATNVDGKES
Strand,E-score
AAAAGACT,-0.0109
CTCGGGAC,0.0368
GGCGGTAC,0.182
AAGCCCAA,-0.124
CTTTAAGA,0.0172
CCCCTGTC,-0.113
TCACTCCA,-0.197
GCGCCGGA,0.33
GAACATCA,-0.0085
GTAGCCTA,-0.115
CGTTGATC,0.0808
ATGATCGG,0.0217
GCGTTTGA,0.0954

# Further values, each from its own experiment
Molecule,target,assay,test system,conditions,scale,endpoint,result
"PhoQ, residues 284 288 289 292 302 303 TTSMTC","PhoP, residues 12 14 15 18 19 NMSSL (Escherichia coli, UniProt P23836)","Sort-seq, refers to: YFP reporter",E. coli,"PhoQ-PhoP variant library, together with: 10 µM Mg2+","baseline: high Mg2+ state, higher = stronger signaling",fold induction,9.22

# A few entries again (sample 2):
Strand,E-score
AATGGTAA,0.231
AATGAGAC,-0.0884
